Measured values of several laboratories.
Every numbered part comes from another study and shows a few of its results, in no order.

Sample 1 — technique: protein-binding microarray; form: double-stranded DNA, one strand shown; medium: in vitro; concentration: 0.8 µM; notes: whole 60-bp probe, no competitor; direction: higher = stronger binding; shared flanks, not repeated: … GTCTTGATTCGCTTGACGCTGCTG
Target: Centromere-binding protein 1, full length, N-terminal tag (CBF1, Saccharomyces cerevisiae, UniProt P17106, residues 1-351)
Chain of UniProt P17106 (whole entry, looked up): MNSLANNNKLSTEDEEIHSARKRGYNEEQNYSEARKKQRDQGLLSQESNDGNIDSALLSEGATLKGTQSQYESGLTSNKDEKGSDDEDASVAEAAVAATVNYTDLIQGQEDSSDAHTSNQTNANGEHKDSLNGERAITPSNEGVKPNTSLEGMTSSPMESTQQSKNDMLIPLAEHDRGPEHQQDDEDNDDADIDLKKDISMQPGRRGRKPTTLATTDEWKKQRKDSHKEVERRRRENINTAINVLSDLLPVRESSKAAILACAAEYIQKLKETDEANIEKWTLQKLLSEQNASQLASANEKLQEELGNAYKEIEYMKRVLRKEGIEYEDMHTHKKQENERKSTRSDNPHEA
With `TGTACGAAGCTATGAATCGTGATTATAGTAGTTAGG` the fluorescence intensity was 593 a.u.
For `CCTAACTACTATATCCATGTGATATAGCTTCGTACA`, the fluorescence intensity was 1160 a.u.
`CTATTCAAAAAGGATCAGGTGAGATATTAGAGTTTC` gave a fluorescence intensity of 960 a.u.
`GAACAAGGTTAGTATCACGTCAATTCTTTCAAATAG` has a fluorescence intensity of 531 a.u.
With `TGTACGAAGCTATTCACCGTGCCTATAGTAGTTAGG` the fluorescence intensity was 541 a.u.
With `GAAATTAATCGTTTATACGTGACGTTGACGATGTAG` the fluorescence intensity was 588 a.u.

Sample 2 — technique: protein binding microarray; form: double-stranded DNA, one strand shown; medium: in vitro; concentration: not given; relative to: not given; direction: higher = stronger binding
Target: Histone acetyltransferase KAT6A, both winged helices, GST fusion (KAT6A, Homo sapiens, UniProt Q92794, residues 1-181)
Notes: 8-mer, flanks averaged, mean of 2 arrays, mostly near background
Residues (chain): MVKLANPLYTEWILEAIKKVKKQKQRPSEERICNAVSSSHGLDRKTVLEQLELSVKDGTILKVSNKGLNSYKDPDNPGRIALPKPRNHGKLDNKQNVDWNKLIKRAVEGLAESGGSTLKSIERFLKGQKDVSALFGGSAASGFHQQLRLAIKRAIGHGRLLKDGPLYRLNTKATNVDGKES
The E-score of `AAGACCGC` is reported as 0.207.
The E-score of `TAGACGGA` is reported as 0.234.
`CCGACTGC` has an E-score of 0.141.
With `ACCTTGTC` the E-score was 0.0704.
With `CGTGACGC` the E-score was 0.235.

Sample 3 — technique: protein-binding microarray; form: double-stranded DNA, one strand shown; medium: in vitro; concentration: 2200 nM top; notes: 60-bp whole probe; with: salmon DNA 0.4 mg/ml; relative to: random background probes; direction: higher = stronger binding; shared flanks, not repeated: GCCTAGCAC … GTCTTGATTCGCTTGACGCTGCTG
Target: Interferon regulatory factor 7, full length, phosphomimetic (IRF7, Homo sapiens, UniProt Q92985, residues 1-503, S471D/S472D/S475D/S476D/S477D/S483D/S484D/S487D)
Chain of UniProt Q92985 (whole entry, unmodified, looked up): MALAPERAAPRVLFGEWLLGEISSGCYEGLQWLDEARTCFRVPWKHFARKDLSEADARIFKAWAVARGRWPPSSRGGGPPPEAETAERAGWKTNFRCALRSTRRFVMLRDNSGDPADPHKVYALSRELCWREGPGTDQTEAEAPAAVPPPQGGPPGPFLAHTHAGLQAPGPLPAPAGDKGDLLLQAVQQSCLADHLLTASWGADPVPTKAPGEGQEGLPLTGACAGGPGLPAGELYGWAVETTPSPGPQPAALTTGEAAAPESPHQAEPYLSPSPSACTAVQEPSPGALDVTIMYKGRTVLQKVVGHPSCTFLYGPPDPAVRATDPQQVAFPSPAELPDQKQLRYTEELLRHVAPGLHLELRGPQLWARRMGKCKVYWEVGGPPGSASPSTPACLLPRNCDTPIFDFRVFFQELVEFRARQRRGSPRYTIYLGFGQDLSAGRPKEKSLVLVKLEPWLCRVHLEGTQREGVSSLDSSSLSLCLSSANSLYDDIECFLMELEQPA
`GACGGTATCCTTTTCATGACGTGCTAG` — result for “fitted relative affinity”: 1.36 z-score.
Under “fitted relative affinity”, `TATAGCTGATACATATAGCCGTGCTAG` is recorded as -0.266 z-score.
`GAGGATATCGGGACTGGAGACGTGCTA` — result for “fitted relative affinity”: -0.407 z-score.
Under “fitted relative affinity”, `TTACATCTCAGACTGGATTAGTGCTAG` is recorded as 0.705 z-score.
Under “fitted relative affinity”, `GACGGTATCGGGTTTCTGGACGTGCTA` is recorded as 0.744 z-score.
`TTACGTCTCGGTTTCGGTTAGTGCTAG`: “fitted relative affinity” 7.59 z-score.
For `TTAGGACAGCTACTGCTTTAGTGCTAG`, “fitted relative affinity” read -0.495 z-score.

Further values, each from its own experiment
`PhoQ, residues 284 288 289 292 302 303 SCKMEA` gave a fold induction of 15.4 (PhoP, residues 12 14 15 18 19 NMSFL (Escherichia coli, UniProt P23836); Sort-seq, refers to: YFP reporter; E. coli; PhoQ-PhoP variant library, with: 10 µM Mg2+; relative to: high Mg2+ state, higher = stronger signaling).

For quick reference, copied from above (sample 2):
The E-score of `TAGACGGA` is reported as 0.234.
The E-score of `AAGACCGC` is reported as 0.207.
With `CGTGACGC` the E-score was 0.235.
